# Assay results from different studies.
# Parts stem from different laboratories: compare values within a part only. Substitutions count along the parent as printed.

# Set 1 — target: CCNA2, cyclin fold, Cln2 fusion (human); technique: yeast growth competition, sequencing; matrix: yeast; setting: strong parent motif; reference: not given; direction: higher = stronger binding
# Starting sequence: E2F1 docking peptide (human); PPVKRRLDLETDH
Substitution,normalised enrichment score
R5D,0.316
R5T,0.197
P1Q,4.61
L7E,-0.295
L7K,0.0688
R5M,0.426
D8C,4.43
E10Y,3.86
H13Y,5
K4C,4.14
V3W,1.39
L7Q,-0.116
E10L,3.23
P2S,3.99
L7D,0.42
P2R,3.92
R5Q,0.145
D8P,2.06

# Set 2 — target: CEBPA, bZIP domain (human); technique: DHFR protein complementation; matrix: yeast; reference: wild-type JUN-FOS pair; direction: higher = stronger binding
# Setting: single substitutions, most at no-binding floor
# Starting sequence: JUN, bZIP domain (human); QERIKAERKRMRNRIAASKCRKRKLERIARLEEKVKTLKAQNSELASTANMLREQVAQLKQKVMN; partner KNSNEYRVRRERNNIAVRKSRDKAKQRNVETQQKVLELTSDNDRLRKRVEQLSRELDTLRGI
Substitution,binding fitness [natural log]
M51P,-1.48
S43N,-1.53
K36C,-1.26
S47R,-1.33
A29D,-1.35
E44S,-1.47
L59H,-1.42
L45C,-1.55
K34Y,-1.4
E33K,-1.37
K34A,-1.43
Q55W,-1.51
Q55H,-1.48
K39P,-1.44

# Set 3 — technique: RNA Bind-n-Seq; form: RNA; matrix: in vitro; tested at: 200 nM; setting: whole 134-nt RNA, ends assumed; together with: 150 mM LiCl; reference: input library; direction: higher = stronger binding; library: 7-deaza-guanosine replaces G
# Target: Ras GTPase-activating protein-binding protein 1, full length (G3BP1, Homo sapiens, UniProt Q13283)
# Chain of UniProt Q13283 (whole entry, looked up): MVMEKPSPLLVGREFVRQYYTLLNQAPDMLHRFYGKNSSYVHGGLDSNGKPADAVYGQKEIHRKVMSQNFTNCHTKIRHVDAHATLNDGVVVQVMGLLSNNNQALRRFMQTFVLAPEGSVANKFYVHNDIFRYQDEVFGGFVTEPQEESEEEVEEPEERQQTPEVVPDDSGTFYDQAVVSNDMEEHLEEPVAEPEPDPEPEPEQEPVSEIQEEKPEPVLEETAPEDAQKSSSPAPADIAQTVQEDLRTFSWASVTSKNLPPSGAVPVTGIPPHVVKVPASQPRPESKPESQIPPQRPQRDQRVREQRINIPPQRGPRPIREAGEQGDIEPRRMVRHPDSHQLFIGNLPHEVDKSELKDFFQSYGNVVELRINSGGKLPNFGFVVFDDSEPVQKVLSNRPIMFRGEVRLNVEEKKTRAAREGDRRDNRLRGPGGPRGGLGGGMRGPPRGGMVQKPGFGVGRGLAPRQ
Sequence,log2 enrichment
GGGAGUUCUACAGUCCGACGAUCGCAGGAAGUAAAAACAAAUGGAAAUGCUUCGGAUAGUGGCAGGGGAGGGGGUUGCUAAGGAAAGGGUGGGAUGGGAGUGGGUAAAGAGUUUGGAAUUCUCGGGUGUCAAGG,0.0359
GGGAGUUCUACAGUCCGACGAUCGCAGGAAGUAAUAACAAAUGGAAAUGCUUCGGAUAGUGGCAGGGGUGGGGGUUGCUAAGGAAAGGGUGGGAUGGGAGUGGGUAAAGAGUUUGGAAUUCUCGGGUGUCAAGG,-0.0725
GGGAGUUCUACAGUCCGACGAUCCUGUGCUACACAUCGUAUGUACCGAAUCGGGGUUUUUUUGGGGAAAGGGGAAAAAAAGGGGAAAGUAUUAUGUUACGCCGUUCGGAUCUGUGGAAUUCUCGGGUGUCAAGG,-0.128
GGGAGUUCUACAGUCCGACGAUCACCAUGCAGGUGGGCAUCUUUGGGAAGUGGGGCAAGGGGGGGUUAGGGAGGGGGGUAACACUUUGGGAACAGGUGGUCCCAGGUCGUUUCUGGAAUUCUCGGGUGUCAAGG,0.0368
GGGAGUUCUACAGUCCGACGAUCAAGUCCUGUGCUACACAUCGUAUGUACCGAAUCAAAUUUUUAAAUUUAAAUUUAAAAAAGUAUUAUGUUACGCCGUUCGGAUCUGCACUUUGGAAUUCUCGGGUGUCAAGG,-2.74
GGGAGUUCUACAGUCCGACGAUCCCUCAAGUCCUGUGCUACACAUCGUAUGUACCGAAUCGGGAGGGAGGGGAGGAAAGUAUUAUGUUACGCCGUUCGGAUCUGCACUUCCAGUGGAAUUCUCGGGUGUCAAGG,-0.233
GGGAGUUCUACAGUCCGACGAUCUCAAGUCCUGUGCUACACAUCGUAUGUACCGAAUCGGAAAGGAGGUUUUUUUGGAAAGUAUUAUGUUACGCCGUUCGGAUCUGCACUUCCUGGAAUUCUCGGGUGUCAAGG,-0.124
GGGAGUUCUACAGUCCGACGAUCGUCCUGUGCUACACAUCGUAUGUACCGAAUCGGGUUUUUGGGUUUUUGGGAAAAAGGGAAAGUAUUAUGUUACGCCGUUCGGAUCUGCACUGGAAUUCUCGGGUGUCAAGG,-0.651

# Set 4 — technique: protein binding microarray; form: double-stranded DNA, one strand shown; matrix: in vitro; tested at: not given; reference: not given; direction: higher = stronger binding
# Target: Histone acetyltransferase KAT6A, both winged helices, GST fusion (KAT6A, Homo sapiens, UniProt Q92794, residues 1-181)
# Setting: 8-mer, flanks averaged, mean of 2 arrays, mostly near background
# Residues (chain): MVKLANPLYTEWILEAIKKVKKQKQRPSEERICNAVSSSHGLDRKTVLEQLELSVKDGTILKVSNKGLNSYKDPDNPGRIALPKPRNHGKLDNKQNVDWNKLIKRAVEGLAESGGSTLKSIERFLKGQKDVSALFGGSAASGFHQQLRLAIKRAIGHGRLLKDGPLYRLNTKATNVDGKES
Sequence,E-score
CCAACAGG,-0.155
AGAACTGC,-0.0664
GCTCAAGA,-0.0865
GGGTAGGA,-0.00275
CCTGACAC,-0.115
AGAACCGC,0.139
CTATGCTA,-0.00136
GAGTCGGA,0.0563
ACATAAAC,-0.0384
CTCGTCAC,0.0553
GAGGAGAC,0.0136
CATAGTGC,0.0141
CATCTACA,-0.109
AGGAGTTG,-0.034
CTAATCTC,-0.159
ATTGGGGA,-0.221
AAACCATC,0.0335
CTATATCC,-0.143
ACAAACTA,-0.18
AGATGACG,-0.0335
CGCTGCAA,0.21
TATAGCCA,-0.0777
CATTCTTA,-0.101
CAACTCTC,-0.164
CGTTGCAA,-0.114

# Excerpt of the above (set 4):
Sequence,E-score
GCTCAAGA,-0.0865
CTATATCC,-0.143
GGGTAGGA,-0.00275
CCAACAGG,-0.155
ACAAACTA,-0.18
AGAACCGC,0.139
TATAGCCA,-0.0777
CTATGCTA,-0.00136
CGTTGCAA,-0.114
AGGAGTTG,-0.034
